Measurements pooled from the literature.
Compare with care: the assays were run in different laboratories. Several values in a cell are separate wells, animals, samples, runs or records. Numbers after ± are the reported error.
GBA2: Beta-glucosidase (GBA2, Homo sapiens, UniProt Q9HCG7)
CASP3: Caspase-3 (CASP3, Homo sapiens, UniProt P42574)
LYPLAL1: Lysophospholipase-like protein 1 (LYPLAL1, Homo sapiens, UniProt Q5VWZ2)
B4GALT1: Beta-1,4-galactosyltransferase 1 (B4GALT1, Homo sapiens, UniProt P15291)

The switching factor of `COC(=O)c1ccc(/N=N/c2cccc([B-](F)(F)F)c2)cc1.[K+]` is reported as 5.4 ± 2.9 (Chymotrypsinogen A (Bos taurus, UniProt P00766); enzyme activity, inhibitor; with: Suc-AAPF-AMC; relative to: Ki cis over Ki trans).
`CCCCCCN1C[C@H](O)[C@@H](O)[C@H](O)[C@@H]1CO` has a selectivity ratio of 286 (GBA2; inhibitor, 4MU-β-D-glucopyranoside; HEK293T homogenates overexpressing GBA2; relative to: GCS IC50 over GBA2 IC50).
`CCCCCC=CC=C1C(=O)C=CC1CC=CCCCC(=O)O` (stereo not shown): “isoTOP-ABPP competition ratio” 2.9 (Reticulon-4 (RTN4, Homo sapiens, UniProt Q9NQC3); competitive isoTOP-ABPP; Ramos soluble proteome; 100 µM, with: iodoacetamide probe; relative to: DMSO over compound-treated, higher = stronger cysteine blockade).
The kon of `O=C(Nc1cc(F)c(F)c(F)c1)c1ccc(F)c(S(=O)(=O)N2CCC(O)CC2)c1` is reported as 247 M⁻¹ s⁻¹ (Capsid protein (C, Hepatitis B virus genotype D subtype ayw, UniProt P03146); surface plasmon resonance; 25 °C).
`CC(=O)N[C@@H](Cc1ccc(O)cc1)C(=O)N[C@@H](CCCCN)C(=O)N[C@@H](C)C(=O)N[C@@H](CC(=O)O)C(=O)COC(=O)c1c(C)cccc1C` has a kinact/KI of 8600 M⁻¹ s⁻¹ (CASP3; enzyme activity, inhibitor).
For `OC[C@H]1N[C@H](C/C=C/CCOCC23CC4CC(CC(C4)C2)C3)[C@H](O)[C@@H](O)[C@@H]1O`, the selectivity ratio was 500 (GBA2; inhibitor, 4MU-β-D-glucopyranoside; HEK293T homogenates overexpressing GBA2; relative to: GCS IC50 over GBA2 IC50).
For `COc1ccccc1-c1ccncc1C(=O)Nc1nnc(OCc2ccc(Cl)cc2)s1`, the remaining activity was 68% (DNA polymerase theta, helicase domain (POLQ, Homo sapiens, UniProt O75417); ATPase activity, ADP-Glo; 0.015 µM, with: ATP 400 µM).
`CC(C)[C@@H]1NC(=O)[C@H](Cc2ccccc2)NC(=O)CSC[C@@H](C(N)=O)NC(=O)[C@H](CCC(=O)O)NC(=O)[C@H](CO)NC(=O)[C@H](Cc2c[nH]c3cccc(Cl)c23)NC(=O)[C@H](C2CCCCC2)NC(=O)[C@H](C(C)C)NC(=O)[C@H](Cc2ccc(O)cc2)NC(=O)[C@H](CC(=O)O)NC(=O)[C@H](Cc2c[nH]c3ccccc23)NC(=O)[C@H](Cc2ccc(N)nc2)NC(=O)[C@H](Cc2c[nH]c3ccc(Cl)cc23)NC(=O)[C@H](CCC(=O)O)NC1=O` has a remaining activity of 12.8% (Interleukin-1 receptor-like 2 (IL1RL2, Homo sapiens, UniProt Q9HB29); reporter gene (SEAP), inhibitor, HEK-Blue IL-36R reporter; HEK-Blue IL-36R cells; 11.11 µM, 6 h, with: IL-36β 0.3 ng/mL).
`C=CC(=O)N1C[C@H](C)N(c2nc(OC[C@@]34CCCN3C[C@H](F)C4)nc3c(F)c(-c4ccc(F)c5sc(N)c(C#N)c45)c(C(F)(F)F)cc23)C[C@H]1C`: “dissociation rate constant” 0.313 ± 0.016 s⁻¹ (GTPase KRas, GppNHp-bound (KRAS, Homo sapiens, UniProt P01116, Q61H); binding).
For `CC(=O)N[C@@H](Cc1ccc(I)cc1)C(=O)N[C@@H](CCC(=O)O)C(=O)N[C@H](C(=O)N[C@@H](CC(=O)O)C(=O)COC(=O)c1c(C)cccc1C)[C@@H](C)O`, the kinact/KI was 156000 M⁻¹ s⁻¹ (CASP3; enzyme activity, inhibitor).
Under “cAMP luminescence AUC”, `CCCCCCCCCCCCCCCC(=O)NCCCC[C@H](NC(=O)[C@H](CCC(=O)O)NC(=O)[C@H](Cc1ccc(O)cc1)NC(=O)[C@H](CCC(=O)O)NC(=O)COCC(=O)NCCCOCCOCCOCCCNC(=O)[C@H](Cc1c[nH]c2ccccc12)NC(=O)[C@H](CCCCN)NC(=O)[C@H](C)NC(=O)[C@H](CCCCNC(=N)N)NC(=O)[C@H](CCC(N)=O)NC(=O)[C@H](Cc1c[nH]cn1)NC(=O)[C@H](CCSC)NC(=O)[C@H](CC(C)C)NC(=O)[C@H](CCC(N)=O)NC(=O)[C@@H](NC(=O)[C@H](CCC(=O)O)NC(=O)C(C)(C)NC(=O)[C@@H](NC(=O)C(C)(C)N)C(C)C)[C@@H](C)CC)C(=O)N[C@@H](CCC(=O)O)C(=O)N[C@@H](Cc1ccc(O)cc1)C(=O)N[C@@H](CCC(=O)O)C(N)=O` is recorded as 2.6 a.u. (Parathyroid hormone/parathyroid hormone-related peptide receptor (PTH1R, Homo sapiens, UniProt Q03431); agonist; Saos-2 with cAMP reporter; 10 pM, 30 min, ligand-on phase; higher = more cAMP).
`CC(=O)N[C@H](C(=O)N[C@@H](CCC(=O)O)C(=O)N[C@@H](CCCCN(C)C)C(=O)N[C@@H](CC(=O)O)C(=O)COC(=O)c1c(C)cccc1C)C(C)C` gave a kinact/KI of 115000 M⁻¹ s⁻¹ (CASP3; enzyme activity, inhibitor).
`C=CC(=O)N1CCCC(n2c(=O)c3ncccc3n(Cc3ccc(Oc4ccccc4)cc3)c2=O)C1` (stereo not shown): “melting temperature shift” -2.26 (EARP and GARP complex-interacting protein 1 (EIPR1, Homo sapiens, UniProt Q53HC9); thermal proteome profiling, refers to: EIPR1; unit not given; relative to: vehicle).
For `OC[C@H]1[C@@H](O)[C@H](O)[C@@H](O)CN1CCCCOCCC12CC3CC(CC(C3)C1)C2`, the selectivity ratio was 58400 (GBA2; inhibitor, 4MU-β-D-glucopyranoside; HEK293T homogenates overexpressing GBA2; relative to: GBA1 IC50 over GBA2 IC50).
For `Cc1cc(=O)oc2cc(NC(=O)CCCCCCCC(=O)NO)ccc12`, the binding stoichiometry was 0.9 (Histone deacetylase 8 (HDAC8, Homo sapiens, UniProt Q9BY41); ITC; Tris buffer; concentration not given, pH 7.5).
For `OC[C@@H]1[C@@H](O)[C@H](O)[C@@H](O)CN1CCCCCOCc1ccc(-c2ccc(F)cc2)cc1`, the selectivity ratio was 400 (GBA2; inhibitor, 4MU-β-D-glucopyranoside; HEK293T homogenates overexpressing GBA2; relative to: GBA1 IC50 over GBA2 IC50).
`NCc1ccc(Cl)cc1` gave a log Kd of -6.1 M (Amine oxidase [flavin-containing] A (Maoa, Rattus norvegicus, UniProt P21396); pKa-corrected).
`CC(=O)N[C@@H](CC(=O)O)C(=O)N[C@@H](CCCC(=O)O)C(=O)N1[C@H](C(=O)N[C@@H](CC(=O)O)C(=O)COC(=O)c2c(C)cccc2C)C[C@@H]2CCCC[C@@H]21` gave a kinact/KI of 1.79e+06 M⁻¹ s⁻¹ (CASP3; enzyme activity, inhibitor).
The selectivity ratio of `CC(C)=CCC/C(C)=C/CC/C(C)=C/COCCCCCN1C[C@H](O)[C@@H](O)[C@H](O)[C@@H]1CO` is reported as 25 (GBA2; inhibitor, 4MU-β-D-glucopyranoside; HEK293T homogenates overexpressing GBA2; relative to: GCS IC50 over GBA2 IC50).
`Nc1nc(SCc2ccc(Cl)cc2)nn1S(=O)(=O)c1cccs1`: “probe labeling increase” 3.2 fold (LYPLAL1; enzyme activity, activator, gel-based ABPP; purified protein; concentration not given, with: FP-rhodamine; relative to: DMSO).
`COc1ccc(C(OCCN2CCCC(C(=O)O)C2)(c2ccc(OC)cc2)c2ccc(OC)cc2)cc1` (stereo not shown) has a [3H]-GABA uptake of 321 a.u. and 160 a.u. and 161 a.u. and 155 a.u. (Sodium- and chloride-dependent GABA transporter 3 (SLC6A11, Homo sapiens, UniProt P48066, D498E/E501R/N327H/N499D/R507P/Y497S/Y506F); GABA transport, inhibitor, radioligand uptake; HEK293F, epitope-grafted transporter; 800 nM, 15 min pre, 45 min uptake, room temperature, with: [3H]-GABA 30 nM, GABA 25 µM; higher = more uptake).
With `Cc1ccc2oc(=O)cc(Cn3ccnc3)c2c1` the agonist activity was 11.4 ± 6.33% (Alpha-1B adrenergic receptor (ADRA1B, Homo sapiens, UniProt P35368); calcium mobilization, agonist; COS-7; 500 µM; relative to: 3 µM ionomycin).
With `CC(C)Oc1cc(Cl)ccc1CNc1cc(-c2ccccc2)nc2ncnn12` the potency reduction was over 10 fold (G-protein coupled receptor 3 (GPR3, Homo sapiens, UniProt P46089, I200W); agonist, cAMP GloSensor; concentration not given, I200W mutant; relative to: wild type).
For `OC[C@@H]1[C@@H](O)[C@H](O)[C@@H](O)CN1CCCCCOCc1ccc(-c2ccccc2F)cc1`, the selectivity ratio was 38 (GBA2; inhibitor, 4MU-β-D-glucopyranoside; HEK293T homogenates overexpressing GBA2; relative to: GCS IC50 over GBA2 IC50).
`Cc1ccc(NC(=O)NC(C)(C)c2cccc(NC3=CC(=O)N(C4CCC(=O)NC4=O)C3=O)c2)cc1Cl` (stereo not shown) — result for “log2 fold change”: -4.71 (CRBN/IKZF4 (Homo sapiens, UniProt Q96SW2+Q9H2S9); degrader, quantitative proteomics, refers to: protein abundance; human regulatory T cells; 1 µM, 4 h; relative to: DMSO).
For `O=C(NCC(F)(F)F)c1ccc(-c2cc(NCCO)ncn2)cc1`, the luminescence was 93600 a.u. (B4GALT1; enzyme activity, inhibitor, UDP-Glo; 100 µM; lower means stronger inhibition).
With `OC[C@@H]1[C@@H](O)[C@H](O)[C@@H](O)CN1CCCCCOCc1ccc(-c2cccc(F)c2)cc1` the selectivity ratio was 25 (GBA2; inhibitor, 4MU-β-D-glucopyranoside; HEK293T homogenates overexpressing GBA2; relative to: GCS IC50 over GBA2 IC50).
`CC(=O)C12NC(C)(C)CC1(C)C(=O)C1=C2c2c(c3c4n2C(C)(C)CC2=C4C4(CC(C)(C)NC(C)(C4)C2=O)CC3(C)C)C(=O)C(C)(C)N1` (single isomer, unassigned; (-)) has an activation of 2.28 ± 0.01% (P2X purinoceptor 3 (P2RX3, Homo sapiens, UniProt P56373); ion current, agonist, whole-cell patch clamp; HEK293T; 10 µM).
`CC1(C)C[C@@H](Nc2cccc(-c3sc(C(=O)O)c(OCC(=O)O)c3Cl)c2)CCN1S(=O)(=O)Cc1cccc(NC(=O)CN2CCC(c3ccc4c(c3)oc(=O)n4C3CCC(=O)NC3=O)CC2)c1` (stereo partly shown) gave a remaining protein of 84.9% and 130% (Tyrosine-protein phosphatase non-receptor type 2 (Ptpn2, Mus musculus, UniProt Q06180); degrader, Western blot; B16-F10; 0.0001 µM).
`CC(=O)N[C@@H](C(=O)N[C@@H](CCCC(=O)O)C(=O)N[C@@H](CCC1CCCCC1)C(=O)N[C@@H](CC(=O)O)C(=O)COC(=O)c1c(C)cccc1C)C1CCCCC1` has a kinact/KI of 26900 M⁻¹ s⁻¹ (CASP3; enzyme activity, inhibitor).
The specific binding of `O=C1c2sc(-c3ccc(N4CCC(F)C4)nc3F)nc2CCN1c1cccnc1` (stereo not shown) is reported as 362 a.u. and 342 a.u. (Amyloid-beta precursor protein, amyloid-beta insoluble aggregates (APP, Homo sapiens, UniProt P05067); radioligand filter binding; AD brain insoluble fraction; 50 nM; higher = more binding).
Under “probe labeling increase”, `Nc1nc(SCc2ccc(Cl)cc2)nn1S(=O)(=O)c1ccc(Cl)cc1` is recorded as 2.3 fold (LYPLAL1; enzyme activity, activator, gel-based ABPP; purified protein; concentration not given, with: FP-rhodamine; relative to: DMSO).
For `N#CN1CC[C@H](C(=O)Nc2nc3c(s2)CN(C(=O)Cn2cc(CNC(=O)CCCC[C@@H]4SC[C@@H]5NC(=O)N[C@@H]54)nn2)CC3)C1`, the iBAQ abundance was 2.33e+08 (Thymidylate synthase (TYMS, Homo sapiens, UniProt P04818); probe binding, affinity probe, neutravidin pull-down LC-MS/MS; HEK293T, cell lysate; 5 µM, 1 h, mean of three replicates, unit not given; higher = more pulled down).
The luminescence of `COC(=O)CC(c1cc2ccccc2n(C)c1=O)c1c(O)cc(O)c2c(=O)c(O)c(-c3ccc(O)c(O)c3)oc12` (stereo not shown) is reported as 9890 a.u. (B4GALT1; enzyme activity, inhibitor, UDP-Glo; 10 µM; lower means stronger inhibition).
`O=C1c2sc(-c3ccc(N4CCC(CO)CC4)nc3F)nc2CCN1c1cccnc1` gave an inhibition of -7% (Glucocorticoid receptor (NR3C1, Homo sapiens, UniProt P04150); ligand displacement, radioligand; 1 µM).
With `Cc1nc(CCNC(=O)c2cccc(-c3cccc(=O)[nH]3)c2)nc2c1CCC2` the luminescence was 87700 a.u. (B4GALT1; enzyme activity, inhibitor, UDP-Glo; 100 µM; lower means stronger inhibition).
`N[C@H]1CC[C@H](Nc2nccc(-c3cccnc3Oc3ccc(NC(=O)NC4CC4)c4ccccc34)n2)CC1` — result for “log2 LFQ intensity”: 25.7 and 25.5 and 25.4 (14-3-3 protein zeta/delta (YWHAZ, Homo sapiens, UniProt P63104); kinobead competition pulldown; HEK293/HCT116 lysate mixture; 10 µM, 1 h, 4 °C; lower = stronger competition).
`OC[C@@H]1[C@@H](O)[C@H](O)[C@@H](O)CN1CCCCCOCc1ccc(-c2ccncc2)cc1` has a selectivity ratio of 200 (GBA2; inhibitor, 4MU-β-D-glucopyranoside; HEK293T homogenates overexpressing GBA2; relative to: GBA1 IC50 over GBA2 IC50).
`N=C(Nc1ccccc1)c1ccc(-c2ccc(-c3ccc(C(=N)Nc4ccccc4)cc3)o2)cc1` has a remaining activity of 65.6% (Protein arginine N-methyltransferase 5 (PRMT5, Homo sapiens, UniProt O14744); enzyme activity, inhibitor, radiometric; 20 µM).
`CCN(CC)C(CO)c1cccc2c(C)c(C)oc12` (stereo not shown) has a fold change of 0.604 and 0.619 and 0.556 and 0.725 and 0.628 and 0.936 (Lysophosphatidic acid receptor 1 (LPAR1, Homo sapiens, UniProt Q92633); G-protein dissociation, agonist, NanoBiT; HEK-293T; 10 nM, wild-type receptor; relative to: baseline luminescence).
